# Measured values pooled from the literature.
# Each numbered part is a random draw from the data of one study; scales do not carry over between parts.

# Sample 1
# Target: RNA binding protein fox-1 homolog 2, RRM domain, GST-SBP tag (RBFOX2, Homo sapiens, UniProt O43251-10, residues 100-194)
# Method: RNA Bind-n-Seq
# Molecule type: RNA
# Medium: in vitro
# Concentration: 365 nM
# Notes: natural RNA segment, single round, ends assumed
# Reference: no-protein control
# Direction: higher = stronger binding
# All sequences stand within: GGGAGUUCUACAGUCCGACGAUC … UGGAAUUCUCGGGUGCCAA
# Target sequence (chain): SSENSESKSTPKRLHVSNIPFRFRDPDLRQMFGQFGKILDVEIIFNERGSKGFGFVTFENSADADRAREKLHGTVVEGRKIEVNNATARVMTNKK
Sequence,RBNS enrichment (R)
GGGCAGUGGUCCUUCCAAAUAGAAGUCCUGGGGCCUGGCCAGGCCAGGGUUUGGGCCUAAUGGUUUUUACUAAAUUACUCCCCUCCUGCUCUCCGAGAAAGGGGAGCCAG,0.263
GUAGCAAACAGCCACUUAGUGCUUUGUCCUGGACUCCACUCAGCCUCAGGAUGGGGAAUAGCCAAGAAUGGCAGCCUCAGCGCAGAGGCAAGGUCAGAAAGAGACGGCGC,0.231
GUCACAGAGAACUAGUGGUGGCUCUGAGAAGGGGAGGACCUCUGGGCUUUGAUUCCAUCUCCUUGUCUUUUUUCUUUGUUUUUAGAGACAGGGUCCUGCUAUUUCCCAAG,0.562
UUUUUGUAUGGAAUUUUUUACAGAAGAGCUAUUUCUGUAUAUGUAAUUAUUUGUGUUUUUUGAAAUGCCUUCCGUAGGUAACCGACAGUCUUAAGCAGUGCUCCACUAAC,0.676
GGUUCCUAUUCAGUAUUUCCUGGGGAUUGUUUGCUUUUUAAGUAAAACACUUCUGACCCAUAGCUCAGUAUGUCUGAAUUCCAGAGGUCACAUCAGCAUCUUUCUGCUUU,4.77
GUUGGUGCUGUAGGCACCCGCCAGGGAGCAGGGACCCGACUUGCAGACGCAUUGCCCGGUACUAGGAAGGAGUGAGGUGUGUUCCCACCGUACACUUCCCACACGAGCUG,0.294
GGCGAAGCUGUGUUGACUGGGAGAGCGUUGGAAAUUGAGACAUGGAGAGAUGACGGGAGUGCGUUUCUCUGGGUUUGAUCUCCAUCCUGUUUUCUCCCAGACACACCACA,0.413
UCUCCUGUAAGAGUAUUAAUGUUGGGGCCCAAGGGCUCGAGGAAGGCAGCCUCGCUCACAGCCAGGCACGUAGCUUGCUUCUGAGAUGUGGCAGGCCCUGUCCCAAGGCC,0.635
GUGUCUGCCUCCACUGCACCCCCAGUCCCUAAAGCAGGGAUCGUGUGUGGUGAGGAACGCUCUCUUCUGGCCUCAAGCUCUUUGCCUCUUUGCCUUCAGCACCCUUGAUG,0.356
AAAACAAAACCCUCAGCACUGUUACAAGAGGCCAUUUAAGUAUCUUGUGCUUCUUCACUUACCCAUUAGCCAGGUUCUCAUUAGGUUUUGCUUGGGCCUCCCUGGCACUG,0.477
GCCAUGUGGAGAACAAUGGUAUUAAUCCAUACUGGGGGGAGACUUUCUAUUUCCGGCUCCAGGUACCUGAACUUGCUAUGUUGCGUUUUGUGGUAAAGGAUUAUAGCAGG,2.19
GAUGUUCUAAACAACCAAACUAAAGCUGUGUACAGAUUGGGUUUGGAGCGGUGGGGACGUCAGCAGGAAACGCCAGUGCUUUGCUGCCUGAUUGACAGGAAUUUGCUGUC,0.274

# Sample 2
# Target: Sal-like protein 4, full length isoform A (SALL4, Homo sapiens, UniProt Q9UJQ4, residues 1-1053)
# Chain of UniProt Q9UJQ4 (whole entry, looked up): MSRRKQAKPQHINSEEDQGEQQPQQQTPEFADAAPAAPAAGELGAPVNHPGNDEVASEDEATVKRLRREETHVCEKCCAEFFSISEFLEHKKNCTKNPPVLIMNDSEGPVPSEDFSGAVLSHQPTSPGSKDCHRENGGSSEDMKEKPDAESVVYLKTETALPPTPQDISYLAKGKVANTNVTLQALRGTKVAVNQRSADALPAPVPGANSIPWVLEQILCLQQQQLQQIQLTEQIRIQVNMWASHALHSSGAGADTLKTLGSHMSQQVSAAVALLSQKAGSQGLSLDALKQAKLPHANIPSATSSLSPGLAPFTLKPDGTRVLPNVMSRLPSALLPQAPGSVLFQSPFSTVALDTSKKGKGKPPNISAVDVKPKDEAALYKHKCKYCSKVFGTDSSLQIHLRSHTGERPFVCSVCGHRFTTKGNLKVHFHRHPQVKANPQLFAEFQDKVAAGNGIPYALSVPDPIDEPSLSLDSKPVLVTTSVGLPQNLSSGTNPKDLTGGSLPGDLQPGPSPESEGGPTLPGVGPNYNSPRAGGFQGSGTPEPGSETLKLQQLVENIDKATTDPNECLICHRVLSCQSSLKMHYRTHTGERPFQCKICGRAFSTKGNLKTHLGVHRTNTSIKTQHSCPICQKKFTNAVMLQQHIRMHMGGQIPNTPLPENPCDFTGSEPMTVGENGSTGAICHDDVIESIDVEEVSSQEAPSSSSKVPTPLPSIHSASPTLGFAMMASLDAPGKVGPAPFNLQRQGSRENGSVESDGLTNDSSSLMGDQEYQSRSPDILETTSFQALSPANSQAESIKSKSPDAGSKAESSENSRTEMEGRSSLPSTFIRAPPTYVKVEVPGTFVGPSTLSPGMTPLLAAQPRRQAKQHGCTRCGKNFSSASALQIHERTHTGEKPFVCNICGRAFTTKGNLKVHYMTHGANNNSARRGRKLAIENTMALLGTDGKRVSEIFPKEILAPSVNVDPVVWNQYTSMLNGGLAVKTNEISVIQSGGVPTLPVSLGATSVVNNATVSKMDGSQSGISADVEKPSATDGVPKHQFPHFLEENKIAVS
# Method: universal PBM
# Molecule type: double-stranded DNA, one strand shown
# Medium: in vitro
# Concentration: 600 nM
# Notes: 8-mer, flanks averaged, mean of replicates
# Direction: higher = stronger binding
Sequence,E-score
GGGTTACC,-0.284
ATCGAAGA,0.247
CGTTACGC,-9e-05
ATGGACCG,-0.185
CACGGCAA,-0.072
CCATGGCA,-0.125
CGCCTCCG,-0.284
TGCATTAA,0.197
CGAGGACA,-0.237
ATCGGAGG,-0.0772
AGAATTAC,0.194
AGGCCATC,-0.0583
ACAACTTC,0.107
GAGTCTGC,-0.236
AACCAATC,0.0576
CCGCGCGA,-0.184
TGTTTGAA,0.195
CACAAATC,0.0046
TCGTAGAA,0.0576
CGCATTAC,0.0675
AACAGACG,-0.0807
AATATTCA,0.42
CAGGACTA,-0.108
AGTACCGC,-0.0621
AAAACCGG,-0.258

# Sample 3
# Target: Interferon regulatory factor 5, full length, phosphomimetic (IRF5, Homo sapiens, UniProt Q13568-2, residues 1-514, K96S/S451D/S453D/S456D/S462D)
# Method: protein-binding microarray
# Molecule type: double-stranded DNA, one strand shown
# Medium: in vitro
# Concentration: 250 nM
# Notes: 60-bp whole probe
# Added: salmon DNA 0.4 mg/ml
# Reference: random background probes
# Direction: higher = stronger binding
# All sequences stand within: GCCTAGCAC … GTCTTGATTCGCTTGACGCTGCTG
Sequence,log fluorescence
GACGCTTTCGGTTCCGGGACGTGCTAG,9.65 z-score
AATACCTTCGAGTCTGCAACAGTGCTA,1.21 z-score
AACGATATCAGTATCGAGACGTGCTAG,4.03 z-score
TCATTTATTTTTTTTATACTGTGCTAG,1.28 z-score
GTGTATATATAATATATATTCGTGCTA,1.01 z-score
GACGAATTGGGGTTTCGAGACGTGCTA,1.27 z-score
GACGGACTGGGGTAGCGGGACGTGCTA,-0.476 z-score
TCATGACACCGATTTCATACTGTGCTA,0.401 z-score
GACGATCTCATTCTCGAGACGTGCTAG,0.0285 z-score
TTACGTTCCCTTTTCCTTTAGTGCTAG,1.66 z-score
GTCGGACTGGGGACTGGGGACGTGCTA,-0.303 z-score
TTAGAACTGATTTTCGATTAGTGCTAG,6.37 z-score
TCAACTTTAAATTAGACACTGTGCTAG,0.311 z-score
TCAGGCCTCTTCATTCATACTGTGCTA,0.395 z-score
TTAGAATTCAGACTGGATTAGTGCTAG,-0.147 z-score
GACAGTCTCCTACTGCTGACGTGCTAG,-0.251 z-score
GACGAACTGGGGTTTTGAGACGTGCTA,-0.286 z-score
TTAGGTCTCCTACTGCTTCAGTGCTAG,-0.285 z-score
TCCTCTTTCACTGCTCCCCAAGTGCTA,3.8 z-score
GAGGGACTGCTACTGCTGACGTGCTAG,-0.629 z-score
GTGGGAAACCGGAAAGGCAAAGTGCTA,-0.0342 z-score

# Sample 4
# Target: Histone acetyltransferase KAT6A, winged helix 1, GST fusion (KAT6A, Homo sapiens, UniProt Q92794, residues 1-85)
# Method: protein binding microarray
# Molecule type: double-stranded DNA, one strand shown
# Medium: in vitro
# Concentration: not given
# Notes: 8-mer, flanks averaged, mean of 2 arrays, mostly near background
# Reference: not given
# Direction: higher = stronger binding
# Target sequence (chain): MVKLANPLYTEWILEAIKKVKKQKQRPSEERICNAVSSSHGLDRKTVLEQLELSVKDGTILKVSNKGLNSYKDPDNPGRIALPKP
Sequence,E-score
GCGTGGAA,0.213
CGGCCTCA,0.228
CCTGCGTA,0.0534
GGAACACC,-0.101
CAAATCTA,-0.212
CCCTGAAC,0.0212
AGAATCAT,-0.357
AATATGCT,-0.166
AATTTAAT,-0.113
CGAGTGCC,0.156
ACGACGTC,0.0933
AACAGGCC,-0.0685
ACTGAACT,0.0583
ACGTTATA,-0.117
GGGGATAC,0.0312
CAACAGGC,-0.0193
ATTATGGA,-0.124

# Sample 5
# Target: Hepatocyte nuclear factor 3-alpha (Foxa1, Mus musculus, UniProt P35582, residues 1-468, full length assumed)
# Chain of UniProt P35582 (whole entry, looked up): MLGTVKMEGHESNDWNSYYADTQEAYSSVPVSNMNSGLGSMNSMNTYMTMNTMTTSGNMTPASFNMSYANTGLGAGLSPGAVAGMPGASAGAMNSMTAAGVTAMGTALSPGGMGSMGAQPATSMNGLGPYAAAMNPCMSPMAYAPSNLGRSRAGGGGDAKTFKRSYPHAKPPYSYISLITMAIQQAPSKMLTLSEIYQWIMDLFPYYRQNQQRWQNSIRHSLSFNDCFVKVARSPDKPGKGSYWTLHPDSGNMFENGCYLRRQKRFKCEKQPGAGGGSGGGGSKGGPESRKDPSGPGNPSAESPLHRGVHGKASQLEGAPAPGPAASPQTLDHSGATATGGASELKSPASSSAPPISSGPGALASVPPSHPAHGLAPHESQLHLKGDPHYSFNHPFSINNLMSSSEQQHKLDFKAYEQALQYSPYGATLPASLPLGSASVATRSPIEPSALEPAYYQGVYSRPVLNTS
# Method: EMSA with sequencing
# Molecule type: double-stranded DNA, one strand shown
# Medium: in vitro
# Concentration: 10 and 20 nM
# Notes: whole designed probe, mean of two concentrations, ends assumed
# Reference: negative control set to 0
# Direction: higher = stronger binding
# All sequences stand within: GTGAGCGGTGCCCATTGATGGGGAAC … TTTCACTGGGATCGTGGGGAC
Sequence,normalised bound fraction [ratio]
CTTTTAAATATTTCAAAAACTATAACTTATAGGATTGCCAATAAGTAGAAAACTTAGATACTACCTTTTCCCATCCTTTATTTTATTTCAGTGTAAACATGGCTTTTATTTAACTATTTATATTTTCTTTAATAAAATTTTTAAGAAATTGTACAGGTTTCATAACATTTTATTGTCATCCTGTGCTTAGATT,0.177
TCTGTAGCCTTTGCAAATAACCTTTTTGAACAAAAACGGCAATGGCTCATTCCAAACCCGATCAAAGAGGTATGCATGACTCACAGCCACTAAATAATCTTTGATGCCTGATGGCAGTAATATGGCTATTTATATTCAGAGCCTGATTTAACCAGTGGCATTCCTGTAATAAGATAATAAGCATGAGCTGTTT,0.0736
CTCATCTTAGATAGTAGAATCGCAGCATTTTTTTCTGCCGGTCTGAACTCAGGCACGCTATTTGTTCATCTACTTACTCAAACATGTATTGTGAGATTACTCAGTGGCAGGCTCTGTCCTAGGTGCTGGGGATGGAGCAGTGCAGAGAGACAAAAACTCTGCTCTCATAAAGCTCACAATCTACAACCTGAGA,0.173
GGTGCCTCCCCAGCCACCTCCGCCCCTGCCTGCTTCTGATTCAACAGCGCCGACCCTACAAAAACAGGGCCCGCCCATCTCCGAGGATGGCAAAGTCAACAGTGCGGGCACGCGGGCGGCCAGTCCCCGGCGGCCCGCGTGCGTCACGGGGGCGGATGCAGAGGACCAGGAAGTTCGCCGACGACGCGCCCGC,0.245
TCCTTTGCATCATATGTTTGCTACTAATATTTTTTCTTAAATTTATAAAAGACAATTTTAGCAATGGGAACAGTAGTTGGAATAGGTTATTTTCTGTTTACTTTGATACTTAAAGGCCATCAGAAGAATGGACTTTTTCCTTTAATTCCCTTCCTGCCTTCTTTTTTACATATAGTAAATTTCCAGAAGAAAA,0.38
ATACACATAAACCAAGAGAAACAAAATACAATATTTATGTGTATATCTTTCTCATTGAACTTCACATTGCTAGAAGTATTTTTCTAAAGACAATGTAATCTTGTCATTTCACTACTAAAAATTTTTTAGTAGATAATATCAATTGCTTTAAGAATAAAACAATTTTTAAAATAATTATATGAAAAAAGTTCTC,0.0652
ACTCAAATTCACTTGGGACTGATGGTTTCATTTCTCTTCTCCCACACTAGGTGGCCAGACCAGCAAGACTTAAGCTTTGTTTAACTTGTCAAAGATTACAGAAGTGCAGGTTGCCAAAATTCTCTCTGCACCCTGACTCCCACTCCCTTTTTTAATTTTTTATTTTATTTTTTGAAATGGAGTCTTGCTCTGT,0.13
TTCCTATCAGGCGAAGGCCGCCTTTCCTGGCCTCCCCCACAGGCCCGCCAGCGATTCGTCCTTACAAGGCTAGCCTCCACGGGCTGCCCTCTGTGTAATTTAAGCCACAGACTTCCGCCCACAGGTCGCCGCAGGTCCCGCCCGCAGCGCCGGGCCGCGGGGGAGGCGGGAACTGGTGCTACGGCCGCTACGC,-0.0397
